Measured values pooled from the literature.
Protocols differ between the studies behind these lines. “And” joins repeats or separate records; there may be more than shown. ± gives the spread as reported.

Compound | cell line | assay | test system | setting | scale | endpoint | value
COc1ccc(-n2nc(C(C)=O)s/c2=N\N=C(/C)c2ccc(NC(=O)c3ccc(C)cc3)cc2)cc1 | MCF7 |  |  | 0.625 µM |  | viability | 8.19%
CCc1ccc(NC(=O)Nc2c[nH]c3ccccc23)cc1 | RAW-ISG | RT-qPCR, item: IFNB1 |  | 10 µM, unit not given, together with: poly(I:C) | relative to: vehicle | mRNA level | 1.33 and 1.14 and 0.93
Cn1cc(Nc2nccc(-c3ccc4c(c3)CN(C3COC3)CC[C@H]4NC(=O)c3cn(C(C)(C)C)nn3)n2)cn1 | mouse splenic B cells | item: IL-3 signalling |  | 30 mg/kg, IgD-activated in vivo | relative to: vehicle, direction not given | pathway activation z-score | 3
Nc1ncnc2c1ncn2[C@@H]1O[C@H](CO)[C@@H](O)[C@H]1O | activated human T cells |  |  | 31.6 µM | higher = more proliferation | T cell proliferation | 12.6 a.u. and 7.5 a.u. and 8 a.u.
CCc1cnc(N2CCC(c3nc(COc4ccc(-n5cnnn5)cc4)cs3)CC2)nc1 | HEK-293T | RNA-seq GSEA, item: HALLMARK_INTERFERON_GAMMA_RESPONSE |  | concentration not given | direction not given | normalized enrichment score | -1.32
C=Cc1c2[n-]c(c1C)/C=c1\[n-]/c(c(C)c1C=C)=C\c1[n-]c(c(CCC(=O)O)c1C)/C=c1\[n-]c(c(C)c1CCC(=O)O)=C2.[Sn+4] | SH-SY5Y | RNA-seq, item: XYLT1 mRNA |  | 5 µM, 5 h | relative to: untreated cells | fold change | 2.1
Cc1cc(C)c(/C=C2\SC(N3CCCCC3)=NC2=O)[nH]1 | NG108-cl | clomeleon fluorescence, item: intracellular chloride reduction |  | 5 h |  | EC50 | inactive
CNc1ncnc2c1c(-c1ccc3cc(OC4CC4)ccc3c1)nn2CC(C)(C)O | PC-3, DU-145, U2OS | mitochondrial respiration, Seahorse |  | concentration not given |  | oxygen consumption rate | no effect
CCCCC1(CCCC)CN(c2ccccc2)c2cc(SC)c(OCC(=O)N[C@@H](C(=O)NCC(=O)O)c3ccccc3)cc2S(=O)(=O)C1 | differentiated Caco-2 | ELISA |  | 1 µM, compound pre-incubation, together with: 0.6 mM post-operative bile acid pools |  | FGF19 secretion | decreased
COc1ccc(Nc2nc3c(S(=O)(=O)c4ccccc4)nnn3c3ccc(Cl)cc23)cc1 | LDR | silenced CMV-GFP reporter derepression, qHTS |  |  |  | efficacy | 40%
CCn1cc(-c2cc(Cn3ccoc3=N)cc3c2CCN([C@@H](C)c2cc(OC)ccn2)C3=O)c(C(F)(F)F)n1 | LMSU | cell growth |  | 120 h |  | EC50 | 0.529 µM
COc1cc2ncnc(Nc3ccc(Oc4ccccc4)cc3C)c2cc1OC.O=C(O)C(F)(F)F | MeWo (NF1) | cell viability, resazurin |  | 0.1 µM, 72 h, together with: trametinib 0 nM |  | average fractional effect | -0.0992%
Cc1nn(-c2nc3ccc(Cl)c(Cl)c3[nH]2)c(O)c1C1OC(=O)c2ccccc21 (stereo not drawn) | RAW-ISG | RT-qPCR, item: IFNB1 |  | 10 µM, unit not given, together with: poly(I:C) | relative to: vehicle | mRNA level | 0.697
O=C(/C=C/C=C/C=C/C1CCCCC1)NC1=C[C@@](O)(/C=C/C=C/C=C/C(=O)NC2=C(O)CCC2=O)[C@@H]2O[C@@H]2C1=O | rerflcai | cell growth, inhibitor, CellTiter-Glo luminescence |  | 78 h | relative to: day 0 cell count | GI50 | 23.3 µM
O=S(=O)(NCCNC/C=C/c1ccc(Br)cc1)c1cccc2cnccc12 | Neuro2a | inhibitor, western blot |  | concentration not given, together with: BRP 100 µg/mL |  | CREB phosphorylation Ser133 | inhibited
CCCCCCOC(=O)[C@]1(O)C[C@@H]2O[C@@]1(C)n1c3ccccc3c3c4c(c5c6ccccc6n2c5c31)C(=O)NC4 | SK-OV-3 | ATP | 3D spheroid culture | 10 µM, 4 days, together with: GA-017 10 µM | relative to: DMSO | relative cell number | 188%
Nc1nnc(-c2ccccc2O)cc1N1CCN(Cc2ccc(OCCOCCNc3cccc4c3C(=O)N(C3CCC(=O)NC3=O)C4=O)c(F)c2)CC1 (stereo not drawn) | H1975 SMARCA4 wild type | ATAC-seq |  | 1 µM, 96 h |  | sites with decreased accessibility | 5.1%
C[C@H](NC(=O)C(=O)Nc1ccccc1C(C)(C)C)C(=O)N[C@@H](CC(=O)O)C(=O)COc1c(F)c(F)cc(F)c1F | mouse thymocytes | inhibitor, flow cytometry |  | 10 µM, together with: FasL |  | PI-positive cells | 103% and 101%
Nc1cccc2c1C(=O)N(C1CCC(=O)NC1=O)C2=O (stereo not drawn) | bone marrow CD138+ myeloma cells | XTT |  | 1.2 µM, phenol red-free RPMI |  | viability | 70%
Cn1cc(-c2ccc(-c3cncc(Cl)c3N3CCC4(CCNC4=O)CC3)cc2)cn1 | COLO 205 | gene expression, microarray, item: EMID1 mRNA |  | concentration not given, 2 h | relative to: untreated cells | log2 fold change | 1.3

Compound | cell line | assay | test system | setting | scale | endpoint | value
CC(=O)N[C@@H](CS)C(=O)O | HeLa | PI flow cytometry |  | concentration not given, 48 h |  | S phase cells | 29.6 ± 4.2%
CC/C(=N\NC(=O)NCc1cccc(O)c1)c1ccc(O)c(C)c1O | SK-OV-3 | gene expression, microarray, item: ANKRD1 |  | 10 µM, 24 h | relative to: DMSO | log ratio | 5.59
N#Cc1sc2nc(-c3ccccc3)cc(C(F)(F)F)c2c1N | LDR | silenced CMV-GFP reporter derepression, qHTS |  |  |  | efficacy | 47%
CSCC[C@H](NC(=O)[C@H](Cc1ccc(OS(=O)(=O)O)cc1)NC(=O)[C@@H](N)CC(=O)O)C(=O)NCC(=O)N[C@@H](Cc1c[nH]c2ccccc12)C(=O)N[C@@H](CCSC)C(=O)N[C@@H](CC(=O)O)C(=O)N[C@@H](Cc1ccccc1)C(N)=O | HEK293T control virus | agonist, calcium mobilization |  | 3.2 nM, no receptor expressed | higher = more calcium release | calcium response | 0.099 a.u. and 0.0777 a.u.
COc1cc2nc(=S)n3[nH]c(CCn4nc(C)cc4C)nc3c2cc1OC | LDR | silenced CMV-GFP reporter derepression, qHTS |  |  |  | efficacy | 175%
Cc1c(C)c2c(c(C)c1O)CCC(C)(COc1ccc(CC3SC(=O)NC3=O)cc1)O2 (stereo not drawn) | HepG2 | high content imaging, item: nuclear size |  | 24 h, distribution mode 2 |  | point of departure | 81.3 µM
Cc1cc(Nc2ncc(Cl)c(Nc3ccccc3S(=O)(=O)C(C)C)n2)c(OC(C)C)cc1C1CCNCC1 | CLB-GE | phosphoproteomics LC-MS/MS, item: SHC3 phosphorylation |  | 200 nM, 60 min | relative to: untreated | log2 fold change | -3.49
COc1ccc(-c2cc(-c3ccccc3)nc(SCC(=O)Nc3nccs3)c2C#N)cc1 | LDR | silenced CMV-GFP reporter derepression, qHTS |  |  |  | efficacy | 25%
c1ccc2[nH]ccc2c1 | HCT-8 | RNA-seq, item: ADM2 |  | concentration not given |  | mRNA level, LS mean | 56.7 counts per million
Cc1ccc(Sc2cc(NCCCO)c([N+](=O)[O-])c3nonc23)cc1 | LDR | silenced CMV-GFP reporter derepression, qHTS |  |  |  | efficacy | 28%
CSc1cc(Oc2ccnc3[nH]c(=O)cnc23)ccc1NC(=O)Nc1cc(C(C)(C)C)nn1-c1ccccc1 | patient-derived cell line | RPPA, item: phosphorylated IRS-1 | human | 1 µM, 4 h | relative to: DMSO | phospho ratio | 0.42
COc1cnc2cccc(N3CCc4c(cc(Cn5ccnc5C)cc4-c4cn(C)nc4C(F)(F)F)C3=O)c2c1 | DOHH-2 | cell growth, inhibitor |  | 120 h |  | EC50 | 1.86 µM
O=C1c2ccncc2C(=O)c2c1[nH]c1ccccc21 | PAH hPASMC | mitochondrial fission |  |  | relative to: A549 over PAH hPASMC | minimum effective concentration ratio | 5 fold
COc1cc(/C=C/C(=O)N2CCC=CC2=O)cc(OC)c1OC | MDA-MB-468 | qRT-PCR, item: PTGIS |  | 30 µM, 6 h | relative to: time zero | mRNA level | 61.4 ± 11%
CC(=O)Nc1cccc(-n2c(=O)n(C3CC3)c(=O)c3c(Nc4ccc(I)cc4F)n(C)c(=O)c(C)c32)c1 | MeWo (NF1) | cell viability, resazurin |  | 50.00 nM, 72 h | relative to: DMSO | fractional effect | 0.478 and 0.452
O=S(=O)(NNc1nnc(Cl)c2ccccc12)c1ccc(F)cc1 | Vero | MTT |  | 62.5 µg/mL |  | cytotoxicity | 11.8%
Cc1nc(N(Cc2ccccc2)c2ccc3c(c2)/C(=C/c2ccccc2)C(=O)N3Cc2ccccc2)c2ccccc2n1 (mixture of isomers) | LLC | PI flow cytometry |  | 2.0 µM |  | cells in G2/M phase | 13.9%
C=CC1=C(C)c2cc3[n-]c(cc4nc(cc5[n-]c(cc1n2)c(C)c5C=C)C(C)=C4CCC(=O)O)c(CCC(=O)O)c3C.[Zn+2] | SH-SY5Y | RNA-seq, item: TNS1 mRNA |  | 5 µM, 5 h | relative to: untreated cells | fold change | 1.89
CCCN1CCN(c2ccc3[nH]c(-c4ccc5[nH]c(-c6ccc(OCC)c(OCC)c6)nc5c4)nc3c2)CC1 | SR | SRB |  | 10 µM, 48 h |  | growth percent | 20.9%

Repeated from above:
Compound | cell line | assay | test system | setting | scale | endpoint | value
O=C1c2ccncc2C(=O)c2c1[nH]c1ccccc21 | PAH hPASMC | mitochondrial fission |  |  | relative to: A549 over PAH hPASMC | minimum effective concentration ratio | 5 fold
COc1cc(/C=C/C(=O)N2CCC=CC2=O)cc(OC)c1OC | MDA-MB-468 | qRT-PCR, item: PTGIS |  | 30 µM, 6 h | relative to: time zero | mRNA level | 61.4 ± 11%
CC(=O)Nc1cccc(-n2c(=O)n(C3CC3)c(=O)c3c(Nc4ccc(I)cc4F)n(C)c(=O)c(C)c32)c1 | MeWo (NF1) | cell viability, resazurin |  | 50.00 nM, 72 h | relative to: DMSO | fractional effect | 0.478 and 0.452
O=S(=O)(NNc1nnc(Cl)c2ccccc12)c1ccc(F)cc1 | Vero | MTT |  | 62.5 µg/mL |  | cytotoxicity | 11.8%
